Results from different studies.
A part holds a random share of what one study measured. Changes are numbered by the printed parent chain.

Set 1
Target: CCNB1, cyclin fold, Cln2 fusion (human)
Technique: yeast growth competition, sequencing
Sample: yeast
Setting: weak parent motif
Baseline: not given
Direction: higher = stronger binding
Endpoint: normalised enrichment score
Starting sequence: SAMHD1 docking peptide (human); ASKSRVQLFKDDP
S2F: 0.329
S4F: 0.694
V6H: -0.217
L8P: 0.293
L8K: 0.206
Q7V: 0.175
Q7A: 0.205

Set 2
Target: Ras GTPase-activating protein-binding protein 1, full length (G3BP1, Homo sapiens, UniProt Q13283)
UniProt Q13283, sequence (whole entry, looked up): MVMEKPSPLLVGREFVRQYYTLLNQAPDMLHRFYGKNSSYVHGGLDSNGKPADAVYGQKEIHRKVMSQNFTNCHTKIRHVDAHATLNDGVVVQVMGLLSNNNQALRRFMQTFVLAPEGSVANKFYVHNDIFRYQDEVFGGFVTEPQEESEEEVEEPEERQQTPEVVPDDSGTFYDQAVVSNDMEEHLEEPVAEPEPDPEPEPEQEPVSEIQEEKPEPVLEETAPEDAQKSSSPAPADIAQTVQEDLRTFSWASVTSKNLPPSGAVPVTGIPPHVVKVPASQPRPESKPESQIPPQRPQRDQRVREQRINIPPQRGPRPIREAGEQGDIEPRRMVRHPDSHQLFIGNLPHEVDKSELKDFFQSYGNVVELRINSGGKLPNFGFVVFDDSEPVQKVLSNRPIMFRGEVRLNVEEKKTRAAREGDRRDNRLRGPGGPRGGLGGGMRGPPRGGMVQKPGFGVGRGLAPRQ
Technique: RNA Bind-n-Seq
Form: RNA
Sample: in vitro
Tested at: 200 nM
Setting: whole 134-nt RNA, ends assumed
Together with: 150 mM LiCl
Baseline: input library
Direction: higher = stronger binding
Endpoint: log2 enrichment
Library: 7-deaza-guanosine replaces G
Shared flanks, not repeated: GGGAGUUCUACAGUCCGACGAUC … UGGAAUUCUCGGGUGUCAAGG
CCUGUGCUACACAUCGUAUGUACCGAAUCGGGCCCCCCCGGGCCCCCCCGGCCCCCCCGGGAAAGUAUUAUGUUACGCCGUUCGGAUCUG: -0.209
UGUGCUACACAUCGUAUGUACCGAAUCGGGUUUUUUUGGGGUUUUUUUGGGGUUUUUUUGGGGAAAGUAUUAUGUUACGCCGUUCGGAUC: 2.02
CACAGACAACACGCACCCACACAGACACAGAGGGAAGGGGUUGGGAUGGGGACAGGGUGCACAGCAGGGCGGGGUAGGACCCCGGCCCCU: -0.735
AAGUCCUGUGCUACACAUCGUAUGUACCGAAUCAAACCCCCAAACCCAAACCCAAAAAAGUAUUAUGUUACGCCGUUCGGAUCUGCACUU: 0.0558
AGUCCUGUGCUACACAUCGUAUGUACCGAAUCGGGGAGGGGAAAAAGGGGUUUGGGGAAAGUAUUAUGUUACGCCGUUCGGAUCUGCACU: -0.66
UCCUGUGCUACACAUCGUAUGUACCGAAUCGGGGAAAAAGGGGAAAGGGGAAAAAGGGGAAAGUAUUAUGUUACGCCGUUCGGAUCUGCA: 0.193
UGUGGGUCCUCCUGCACCUGGUGCUGGCCUUCCUGUCCCUGCGCUCUUUGACAGCCUCCUGACCUGUAGGACGAGGGAUUCCUUGUUCUU: 0.697
UAACUUUAGAGGAGGAUCUGAUGGAUAUGGCAGUGGACGUGGAUUUGGGGAUGGCUAUACUGGGUAUGGAGGAGGACCUGGAGGUGGCAA: -0.289
AGUCCUGUGCUACACAUCGUAUGUACCGAAUCAAACCCAAACCCCCAAAUUUUUAAAAAAGUAUUAUGUUACGCCGUUCGGAUCUGCACU: 1.19
UAACUUUAGAGGAGGAUCUGAUGGAUAUGGCCGUGGACGUGGAUUUGGGGAUGGCUAUAAUGGGUAUGGAGGAGGACCUGGAGGUGGCAA: -0.624
CAAGUCCUGUGCUACACAUCGUAUGUACCGAAUCGGGAGGGUUUGGGAAAAAGGGAAAGUAUUAUGUUACGCCGUUCGGAUCUGCACUUC: 0.226

Set 3
Target: Centromere-binding protein 1, full length, N-terminal tag (CBF1, Saccharomyces cerevisiae, UniProt P17106, residues 1-351)
UniProt P17106, sequence (whole entry, looked up): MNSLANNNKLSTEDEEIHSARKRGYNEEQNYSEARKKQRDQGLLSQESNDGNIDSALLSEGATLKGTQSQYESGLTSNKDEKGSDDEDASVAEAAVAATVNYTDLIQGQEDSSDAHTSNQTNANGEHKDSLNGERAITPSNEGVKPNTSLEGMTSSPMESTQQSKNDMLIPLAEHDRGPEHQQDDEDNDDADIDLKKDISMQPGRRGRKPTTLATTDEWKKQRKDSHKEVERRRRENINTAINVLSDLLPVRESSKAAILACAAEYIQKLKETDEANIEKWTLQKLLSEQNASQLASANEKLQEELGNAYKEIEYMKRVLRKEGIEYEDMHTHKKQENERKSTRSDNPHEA
Technique: protein-binding microarray
Form: double-stranded DNA, one strand shown
Sample: in vitro
Tested at: 0.8 µM
Setting: whole 60-bp probe, no competitor
Direction: higher = stronger binding
Endpoint: fluorescence intensity
Shared flanks, not repeated: … GTCTTGATTCGCTTGACGCTGCTG
CCTAACTACTATAATCACACCTAATAGCTTCGTACA: 563 a.u.
CTAACATGACTACACCACGTTAATAGCGATCTGTTC: 573 a.u.
CTAACTACTGTAAAGCGGGTGATGCAGTAAGCATTC: 584 a.u.
CTAAAAGAGTAAGATCACCACGCACGTTTAGGGTTC: 550 a.u.
GAACTGAGGATTGTTTGTCAGGTGTCGCGGCCATAG: 1130 a.u.
GAATAGTTATTTTGTGACACAAAAACAAAATCGTAG: 563 a.u.
GAAATCAAAGTGCACTACGTGACAAAAATAAAATAG: 814 a.u.
GAACCTTTATCTTCCACGCTGATGTAAAGTGTATAG: 588 a.u.
GAAATATAAGATTACCACGAGCGAGAGTAAAAATAG: 588 a.u.
CTATAAATTTGAAATCTCCTGTTGCAAAGGATTTTC: 480 a.u.
TGTACGAAGCTATTTCGTGTCATTATAGTAGTTAGG: 507 a.u.
GAAGTCTATAGTGCAAACGTGATCAATGTAAAGTAG: 2380 a.u.
CTATCAGTTCTCGAGCACGCAGAGAAAAGTAAATTC: 534 a.u.
GAATTGTTGTACCATCACCATGTGCTATTCCATTAG: 744 a.u.
CCTAACTACTATATTAATATCACATAGCTTCGTACA: 531 a.u.

Further values, each from its own experiment
PhoQ, residues 284 288 289 292 302 303 ASASEQ
fold induction (PhoP, residues 12 14 15 18 19 TPLRH (Escherichia coli, UniProt P23836); Sort-seq, refers to: YFP reporter; E. coli; PhoQ-PhoP variant library, together with: 10 µM Mg2+; baseline: high Mg2+ state, higher = stronger signaling): 1.03

Some of these lines once more (set 3):
GAATTGTTGTACCATCACCATGTGCTATTCCATTAG: 744 a.u.
CTATCAGTTCTCGAGCACGCAGAGAAAAGTAAATTC: 534 a.u.
CTAACTACTGTAAAGCGGGTGATGCAGTAAGCATTC: 584 a.u.
